Results of several laboratories.
Every numbered part comes from another study and shows a few of its results, in no order.

Set 1
Target: Histone acetyltransferase KAT6A, winged helix 1, GST fusion (KAT6A, Homo sapiens, UniProt Q92794, residues 1-85)
Technique: protein binding microarray
Form: double-stranded DNA, one strand shown
Sample: in vitro
Concentration: not given
Setting: 8-mer, flanks averaged, mean of 2 arrays, mostly near background
Baseline: not given
Direction: higher = stronger binding
Construct (chain): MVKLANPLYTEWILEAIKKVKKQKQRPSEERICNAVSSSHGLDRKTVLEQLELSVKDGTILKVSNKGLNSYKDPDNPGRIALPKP
| Strand | E-score |
| --- | --- |
| CATACACC | 0.00191 |
| AACATTCC | -0.00344 |
| CCGAAGAA | -0.0391 |
| ATAATGTC | 0.0168 |
| AGCTTGTA | -0.256 |
| CCATAAAC | -0.112 |
| GTTGGGAA | -0.183 |
| ATGCATTA | -0.214 |
| CGGATGAA | -0.0316 |

Set 2
Target: Hepatocyte nuclear factor 3-beta, forkhead domain (FOXA2, Homo sapiens, UniProt Q9Y261, residues 142-269)
Technique: protein-binding microarray
Form: double-stranded DNA, one strand shown
Sample: in vitro
Concentration: not given
Setting: k-mer, scored over probes, only values ≥0.25
Direction: higher = stronger binding
Residues (chain): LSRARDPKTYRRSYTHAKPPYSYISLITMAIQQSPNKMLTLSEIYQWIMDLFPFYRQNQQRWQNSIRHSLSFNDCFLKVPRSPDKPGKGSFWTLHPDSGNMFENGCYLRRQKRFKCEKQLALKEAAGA
| Strand | E-score |
| --- | --- |
| GCTATTCA | 0.268 |
| CGATACTA | 0.287 |
| AACTGTAT | 0.326 |
| ACGATTAT | 0.274 |
| CCAACTAA | 0.268 |
| ATACCAAC | 0.251 |
| TTATTCAA | 0.307 |

Set 3
Target: Sal-like protein 4, full length isoform B (SALL4, Homo sapiens, UniProt Q9UJQ4-2, residues 1-616)
Technique: universal PBM
Form: double-stranded DNA, one strand shown
Sample: in vitro
Concentration: not given
Setting: 8-mer, flanks averaged, mean of replicates
Direction: higher = stronger binding
| Strand | E-score |
| --- | --- |
| CGGATGTA | -0.0414 |
| TCGAAAGA | 0.122 |
| CGCCCCAC | -0.29 |
| GTGAACAA | 0.00846 |
| CCGGGCCA | -0.373 |
| TCCCACGA | -0.18 |
| AGCCTCAA | -0.18 |
| ACATTCTC | 0.101 |
| AGGCCGTA | -0.0616 |
| GTCTGAAC | -0.0659 |

Other studies, line by line
| Molecule | target | assay | test system | conditions | how to read | quantity | value |
| --- | --- | --- | --- | --- | --- | --- | --- |
| PhoQ, residues 284 288 289 292 302 303 SLKLQV | PhoP, residues 12 14 15 18 19 HEGLL (Escherichia coli, UniProt P23836) | Sort-seq, measured: YFP reporter | E. coli | PhoQ-PhoP variant library, together with: 10 µM Mg2+ | baseline: high Mg2+ state, higher = stronger signaling | fold induction | 15.4 |

Excerpt of the above (set 1):
| Strand | E-score |
| --- | --- |
| CCATAAAC | -0.112 |
| GTTGGGAA | -0.183 |
